Published values pooled from the literature.
Numbered parts are unrelated; each lists some results of a single study.

Series 1 — technique: universal PBM; molecule type: double-stranded DNA, one strand shown; sample: in vitro; tested at: not given; direction: higher = stronger binding
Target: Sal-like protein 4, full length isoform B (SALL4, Homo sapiens, UniProt Q9UJQ4-2, residues 1-616)
Notes: 8-mer, flanks averaged, mean of replicates
| Sequence | E-score |
| --- | --- |
| CCGCCGGC | -0.256 |
| TGTGCTAA | 0.0221 |
| AGTATTTA | 0.312 |
| ATGCGGAC | -0.188 |
| CCAGACAA | -0.042 |
| AAACTGTG | -0.0195 |
| CCGCGGTA | -0.231 |
| CTCGATAA | 0.128 |

Series 2 — technique: aptamer microarray, sandwich; molecule type: DNA with 2'F-ANA; sample: in vitro; tested at: 200 nM; with: Cy3 exosite-II aptamer, 400 nM; direction: higher = stronger binding; sequence: GGTTGGTGTGGTTGG
Target: Prothrombin, mature alpha-thrombin (F2, Homo sapiens, UniProt P00734)
Notes: whole 15-mer aptamer, many near background
| Modification | mean fluorescence intensity [a.u.] |
| --- | --- |
| 2'F-ANA at 2 3 5 7 10 11 12 13 14 | 48.1 |
| 2'F-ANA at 2 6 7 9 10 12 15 | 148 |
| 2'F-ANA at 1 2 3 4 5 10 12 14 15 | 55.1 |
| 2'F-ANA at 1 6 7 15 | 195 |
| 2'F-ANA at 1 3 4 5 9 11 12 13 14 | 47.5 |
| 2'F-ANA at 1 3 7 13 14 | 91.8 |
| 2'F-ANA at 1 2 3 7 8 10 11 12 13 15 | 130 |
| 2'F-ANA at 3 5 7 8 9 10 11 14 | 130 |
| 2'F-ANA at 1 4 8 10 | 88.2 |

Series 3 — technique: RNAcompete; molecule type: RNA; sample: in vitro; tested at: 20 nM; notes: 7-mer, probes averaged, single round; reference: mean of 7-mers; direction: higher = stronger binding
Target: PABPC1L2, full length, GST fusion (mouse, UniProt A0ABA7IW68)
Construct (chain): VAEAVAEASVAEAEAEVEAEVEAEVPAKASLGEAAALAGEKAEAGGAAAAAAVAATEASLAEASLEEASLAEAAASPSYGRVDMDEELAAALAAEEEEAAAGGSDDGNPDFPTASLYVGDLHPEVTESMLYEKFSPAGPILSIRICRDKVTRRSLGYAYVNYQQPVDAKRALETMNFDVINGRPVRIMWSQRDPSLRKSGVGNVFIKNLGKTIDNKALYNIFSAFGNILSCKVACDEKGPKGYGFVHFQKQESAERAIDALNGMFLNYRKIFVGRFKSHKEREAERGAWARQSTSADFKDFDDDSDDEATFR
| Sequence | 7-mer Z-score |
| --- | --- |
| GGUCGUG | -0.211 |
| CAUGUUC | -0.374 |
| UGAUGUC | -0.264 |
| UUACUAG | -0.151 |
| CUCUAGA | -0.211 |
| AUAGCCG | -0.175 |
| UAAGUGG | 0.263 |
| CCCACCA | -0.295 |

Further values, each from its own experiment
| Substance | target | test | test system | conditions | how to read | endpoint | value |
| --- | --- | --- | --- | --- | --- | --- | --- |
| PhoQ, residues 284 288 289 292 302 303 TASMAF | PhoP, residues 12 14 15 18 19 HEGLL (Escherichia coli, UniProt P23836) | Sort-seq, refers to: YFP reporter | E. coli | PhoQ-PhoP variant library, with: 10 µM Mg2+ | reference: high Mg2+ state, higher = stronger signaling | fold induction | 12 |

Repeated from above (series 1):
| Sequence | E-score |
| --- | --- |
| TGTGCTAA | 0.0221 |
| AGTATTTA | 0.312 |
